Assay results pooled from the literature.
Cell line: Vero

`O=C(/C=C/C=C/c1ccc([N+](=O)[O-])cc1)c1ccc(Cl)cc1` has a viability of greater than 75% (MTT; up to 300 µg/mL, 24 h).
For `COc1c(C)c2c(c(O)c1C/C=C(\C)CCC(=O)O)C(=O)OC2`, “minimal cytotoxic concentration” read greater than 100 µM (measured: cell morphology).
Under “minimum cytotoxic concentration”, `Nc1ccn([C@@H]2O[C@](F)(CO)[C@@H](O)C2(F)F)c(=O)n1` is recorded as 0.16 µM (cell morphology, microscopy; 5 (unit not given)).
Under “minimum cytotoxic concentration”, `CC(C)(C)NC(=O)[C@H](Cc1c[nH]c2ccccc12)NC(=O)[C@H](Cc1ccccc1)NCc1ccc(-c2ccccc2)cc1` is recorded as greater than 100 µM (cell morphology, microscopy; 5 (unit not given)).
`CCN(CCO)CCCC(C)Nc1ccnc2cc(Cl)ccc12` (stereo not shown) — result for “minimum cytotoxic concentration”: 100 µM (cell morphology, microscopy; 5 (unit not given)).
`CC(C)(C)NC(=O)[C@H](Cc1c[nH]c2ccccc12)NC(=O)[C@@H]1CCCN1C(=O)OC(C)(C)C` — result for “minimum cytotoxic concentration”: greater than 100 µM (cell morphology, microscopy; 5 (unit not given)).
For `CO[C@]1(CO)O[C@@H](n2ccc(N)nc2=O)C(F)(F)[C@@H]1O`, “minimum cytotoxic concentration” read greater than 100 µM (cell morphology, microscopy; 5 (unit not given)).
`NC(=S)N/N=C/c1ccc(-c2ccc(C(=O)O)c(O)c2)o1`: cytotoxicity “not toxic” (MTT; concentration not given).
`C#CC[C@H](NC(=O)OC(C)(C)C)C(=O)N(Cc1ccccc1)Cc1cn(C)c2ccc(C(=O)OC)cc12`: “minimum cytotoxic concentration” 100 µM (cell morphology, microscopy; 5 (unit not given)).
Under “minimal cytotoxic concentration”, `NC(=O)c1ncn([C@@H]2O[C@H](CO)[C@@H](O)[C@H]2O)n1` is recorded as greater than 250 µM (measured: cell morphology).

Some of these lines once more:
`C#CC[C@H](NC(=O)OC(C)(C)C)C(=O)N(Cc1ccccc1)Cc1cn(C)c2ccc(C(=O)OC)cc12`: “minimum cytotoxic concentration” 100 µM (cell morphology, microscopy; 5 (unit not given)).
